Measured values of several laboratories.
A part holds a random share of what one study measured.

Sample 1 — technique: aptamer microarray, sandwich; molecule type: DNA with 2'F-ANA; sample: in vitro; tested at: 200 nM; with: Cy3 exosite-II aptamer, 400 nM; reading: higher = stronger binding; sequence: GGTTGGTGTGGTTGG
Target: Prothrombin, mature alpha-thrombin (F2, Homo sapiens, UniProt P00734)
Notes: whole 15-mer aptamer, many near background
| Modification | mean fluorescence intensity [a.u.] |
| --- | --- |
| 2'F-ANA at 2 4 7 8 12 13 14 | 155 |
| 2'F-ANA at 4 8 9 13 14 15 | 71.6 |
| 2'F-ANA at 4 5 7 8 9 10 11 | 73 |
| 2'F-ANA at 4 5 6 7 8 9 10 11 14 | 47.2 |
| 2'F-ANA at 1 3 5 9 10 15 | 45.8 |
| 2'F-ANA at 3 5 7 8 9 10 13 | 70.8 |
| 2'F-ANA at 2 4 6 7 11 12 13 | 336 |
| 2'F-ANA at 1 2 4 5 6 7 8 12 | 142 |
| 2'F-ANA at 1 3 6 7 8 9 11 12 13 | 373 |
| 2'F-ANA at 1 3 4 6 9 10 13 15 | 56.7 |

Sample 2 — technique: universal PBM; molecule type: double-stranded DNA, one strand shown; sample: in vitro; tested at: not given; reading: higher = stronger binding
Target: Sal-like protein 4, full length isoform B (SALL4, Homo sapiens, UniProt Q9UJQ4-2, residues 1-616)
Notes: 8-mer, flanks averaged, mean of replicates
Construct (chain): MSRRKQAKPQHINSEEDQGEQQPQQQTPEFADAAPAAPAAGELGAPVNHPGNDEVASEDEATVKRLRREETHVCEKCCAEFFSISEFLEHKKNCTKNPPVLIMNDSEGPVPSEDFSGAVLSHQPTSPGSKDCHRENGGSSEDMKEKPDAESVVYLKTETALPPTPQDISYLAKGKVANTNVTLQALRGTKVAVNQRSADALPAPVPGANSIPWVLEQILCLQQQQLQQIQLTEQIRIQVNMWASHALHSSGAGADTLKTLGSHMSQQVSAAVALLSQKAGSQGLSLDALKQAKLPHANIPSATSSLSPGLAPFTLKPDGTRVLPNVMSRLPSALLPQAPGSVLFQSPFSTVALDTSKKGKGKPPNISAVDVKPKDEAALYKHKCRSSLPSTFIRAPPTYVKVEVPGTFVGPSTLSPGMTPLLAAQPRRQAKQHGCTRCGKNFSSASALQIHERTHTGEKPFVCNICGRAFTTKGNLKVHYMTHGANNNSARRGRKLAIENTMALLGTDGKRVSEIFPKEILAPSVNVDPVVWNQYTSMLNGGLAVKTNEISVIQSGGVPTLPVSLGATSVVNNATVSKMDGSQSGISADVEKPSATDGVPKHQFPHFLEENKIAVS
| Sequence | E-score |
| --- | --- |
| ACCGCCAA | -0.159 |
| ACTCGCGA | -0.0838 |
| ACCAATCA | 0.044 |
| AATGTTCA | 0.138 |
| CAGGTGAG | -0.203 |
| CACTCCCG | -0.101 |

Sample 3 — technique: protein binding microarray; molecule type: double-stranded DNA, one strand shown; sample: in vitro; tested at: not given; baseline: not given; reading: higher = stronger binding
Target: Histone acetyltransferase KAT6A, winged helix 2, GST fusion (KAT6A, Homo sapiens, UniProt Q92794, residues 85-181)
Notes: 8-mer, flanks averaged, mean of 2 arrays, mostly near background
Construct (chain): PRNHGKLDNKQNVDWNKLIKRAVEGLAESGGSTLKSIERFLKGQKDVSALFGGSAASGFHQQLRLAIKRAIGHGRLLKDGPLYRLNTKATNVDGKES
| Sequence | E-score |
| --- | --- |
| AGAAGTGG | -0.24 |
| GCCTAGGA | -0.00125 |
| TGGAGCCA | -0.0796 |
| AGTGACTG | -0.138 |
| CCCGGTTC | 0.0485 |
| CCGCGGGC | 0.0198 |
| GTTTCCTA | -0.0318 |
| ATCTCTCA | -0.043 |

Single results of other studies
| Substance | target | assay | system | setting | scale | measurement | result |
| --- | --- | --- | --- | --- | --- | --- | --- |
| PhoQ, residues 284 288 289 292 302 303 SLANKL | PhoP, residues 12 14 15 18 19 LQHIR (Escherichia coli, UniProt P23836) | Sort-seq, item: YFP reporter | E. coli | PhoQ-PhoP variant library, with: 10 µM Mg2+ | baseline: high Mg2+ state, higher = stronger signaling | fold induction | 7.71 |
